{"data": "Measurements of several laboratories", "note": "A part holds a random share of what one study measured.", "sequence of UniProt P68400 (whole entry, looked up)": "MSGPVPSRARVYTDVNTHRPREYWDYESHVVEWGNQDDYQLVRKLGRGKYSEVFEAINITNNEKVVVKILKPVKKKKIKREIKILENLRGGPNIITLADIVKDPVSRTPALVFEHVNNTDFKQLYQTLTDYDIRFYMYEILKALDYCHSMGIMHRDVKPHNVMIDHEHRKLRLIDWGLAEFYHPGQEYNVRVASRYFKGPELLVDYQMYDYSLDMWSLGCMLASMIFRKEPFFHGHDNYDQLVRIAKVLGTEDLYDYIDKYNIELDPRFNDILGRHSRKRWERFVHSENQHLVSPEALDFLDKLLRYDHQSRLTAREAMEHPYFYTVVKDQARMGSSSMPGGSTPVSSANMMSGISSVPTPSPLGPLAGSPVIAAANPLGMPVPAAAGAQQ", "sequence of UniProt Q13882 (whole entry, looked up)": "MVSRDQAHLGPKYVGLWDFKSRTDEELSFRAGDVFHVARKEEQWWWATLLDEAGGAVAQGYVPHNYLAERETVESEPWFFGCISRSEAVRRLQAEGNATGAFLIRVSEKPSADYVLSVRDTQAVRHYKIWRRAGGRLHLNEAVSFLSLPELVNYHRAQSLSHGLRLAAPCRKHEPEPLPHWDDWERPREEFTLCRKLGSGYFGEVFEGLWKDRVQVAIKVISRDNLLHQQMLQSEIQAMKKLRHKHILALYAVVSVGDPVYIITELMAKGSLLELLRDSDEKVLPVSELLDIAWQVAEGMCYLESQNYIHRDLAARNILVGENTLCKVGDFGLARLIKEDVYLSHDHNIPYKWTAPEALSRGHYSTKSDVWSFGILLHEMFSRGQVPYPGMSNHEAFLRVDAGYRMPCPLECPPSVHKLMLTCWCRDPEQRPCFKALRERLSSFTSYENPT", "sequence of UniProt O95835 (whole entry, looked up)": "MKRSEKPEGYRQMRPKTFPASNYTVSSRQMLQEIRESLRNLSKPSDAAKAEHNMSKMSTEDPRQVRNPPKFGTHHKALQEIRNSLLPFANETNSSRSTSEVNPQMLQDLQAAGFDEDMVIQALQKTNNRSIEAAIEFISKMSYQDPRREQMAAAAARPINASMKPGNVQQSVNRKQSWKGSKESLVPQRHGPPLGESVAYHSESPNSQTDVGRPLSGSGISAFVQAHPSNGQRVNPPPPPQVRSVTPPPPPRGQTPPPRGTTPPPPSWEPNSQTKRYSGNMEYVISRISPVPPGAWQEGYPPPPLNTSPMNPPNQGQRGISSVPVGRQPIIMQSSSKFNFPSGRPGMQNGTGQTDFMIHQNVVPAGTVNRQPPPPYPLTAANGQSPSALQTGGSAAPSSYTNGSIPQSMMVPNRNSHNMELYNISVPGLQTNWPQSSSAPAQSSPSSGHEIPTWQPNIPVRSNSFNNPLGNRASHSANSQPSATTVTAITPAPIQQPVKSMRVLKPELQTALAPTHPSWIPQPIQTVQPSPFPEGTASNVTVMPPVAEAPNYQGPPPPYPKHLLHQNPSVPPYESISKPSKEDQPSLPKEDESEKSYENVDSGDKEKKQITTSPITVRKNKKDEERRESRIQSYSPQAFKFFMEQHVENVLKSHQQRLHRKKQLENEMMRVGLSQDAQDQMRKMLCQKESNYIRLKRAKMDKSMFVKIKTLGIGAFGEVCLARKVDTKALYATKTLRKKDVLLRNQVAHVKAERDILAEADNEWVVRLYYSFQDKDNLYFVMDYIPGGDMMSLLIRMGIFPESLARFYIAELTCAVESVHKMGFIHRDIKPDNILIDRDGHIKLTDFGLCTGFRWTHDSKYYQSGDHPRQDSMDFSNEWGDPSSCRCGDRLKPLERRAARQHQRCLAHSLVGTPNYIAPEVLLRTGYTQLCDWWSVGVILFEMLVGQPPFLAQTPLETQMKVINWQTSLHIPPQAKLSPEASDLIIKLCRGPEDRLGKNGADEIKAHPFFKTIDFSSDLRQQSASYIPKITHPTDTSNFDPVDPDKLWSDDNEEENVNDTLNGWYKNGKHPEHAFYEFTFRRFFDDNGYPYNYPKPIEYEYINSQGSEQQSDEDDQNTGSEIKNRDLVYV", "sequence of UniProt P42336 (whole entry, unmodified, looked up)": "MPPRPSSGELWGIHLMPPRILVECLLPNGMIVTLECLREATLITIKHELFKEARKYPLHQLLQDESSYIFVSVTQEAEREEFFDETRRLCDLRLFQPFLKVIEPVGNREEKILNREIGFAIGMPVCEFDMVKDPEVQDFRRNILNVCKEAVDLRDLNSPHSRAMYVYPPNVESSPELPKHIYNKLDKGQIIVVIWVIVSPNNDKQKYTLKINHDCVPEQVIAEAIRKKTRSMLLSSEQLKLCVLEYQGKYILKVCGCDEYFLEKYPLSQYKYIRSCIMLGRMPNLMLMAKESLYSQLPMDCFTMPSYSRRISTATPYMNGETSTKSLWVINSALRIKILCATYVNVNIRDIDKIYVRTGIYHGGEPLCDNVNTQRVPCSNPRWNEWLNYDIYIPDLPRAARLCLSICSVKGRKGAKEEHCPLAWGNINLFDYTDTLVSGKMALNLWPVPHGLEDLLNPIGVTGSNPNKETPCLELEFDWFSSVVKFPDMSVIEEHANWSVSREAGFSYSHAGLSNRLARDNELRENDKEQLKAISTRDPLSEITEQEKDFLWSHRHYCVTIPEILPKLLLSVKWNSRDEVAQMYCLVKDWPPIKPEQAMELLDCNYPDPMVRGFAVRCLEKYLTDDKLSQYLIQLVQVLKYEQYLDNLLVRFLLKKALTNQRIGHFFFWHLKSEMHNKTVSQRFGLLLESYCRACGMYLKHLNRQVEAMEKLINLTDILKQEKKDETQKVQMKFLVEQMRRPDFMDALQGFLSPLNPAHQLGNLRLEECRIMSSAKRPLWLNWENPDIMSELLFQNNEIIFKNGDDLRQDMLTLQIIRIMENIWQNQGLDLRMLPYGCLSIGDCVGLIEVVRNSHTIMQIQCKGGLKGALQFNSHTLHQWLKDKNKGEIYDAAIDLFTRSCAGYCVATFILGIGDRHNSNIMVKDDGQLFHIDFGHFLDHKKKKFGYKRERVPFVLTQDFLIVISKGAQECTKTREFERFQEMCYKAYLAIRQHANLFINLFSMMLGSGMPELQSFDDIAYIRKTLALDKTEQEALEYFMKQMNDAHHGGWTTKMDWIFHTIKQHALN", "sequence of UniProt Q99683 (whole entry, looked up)": "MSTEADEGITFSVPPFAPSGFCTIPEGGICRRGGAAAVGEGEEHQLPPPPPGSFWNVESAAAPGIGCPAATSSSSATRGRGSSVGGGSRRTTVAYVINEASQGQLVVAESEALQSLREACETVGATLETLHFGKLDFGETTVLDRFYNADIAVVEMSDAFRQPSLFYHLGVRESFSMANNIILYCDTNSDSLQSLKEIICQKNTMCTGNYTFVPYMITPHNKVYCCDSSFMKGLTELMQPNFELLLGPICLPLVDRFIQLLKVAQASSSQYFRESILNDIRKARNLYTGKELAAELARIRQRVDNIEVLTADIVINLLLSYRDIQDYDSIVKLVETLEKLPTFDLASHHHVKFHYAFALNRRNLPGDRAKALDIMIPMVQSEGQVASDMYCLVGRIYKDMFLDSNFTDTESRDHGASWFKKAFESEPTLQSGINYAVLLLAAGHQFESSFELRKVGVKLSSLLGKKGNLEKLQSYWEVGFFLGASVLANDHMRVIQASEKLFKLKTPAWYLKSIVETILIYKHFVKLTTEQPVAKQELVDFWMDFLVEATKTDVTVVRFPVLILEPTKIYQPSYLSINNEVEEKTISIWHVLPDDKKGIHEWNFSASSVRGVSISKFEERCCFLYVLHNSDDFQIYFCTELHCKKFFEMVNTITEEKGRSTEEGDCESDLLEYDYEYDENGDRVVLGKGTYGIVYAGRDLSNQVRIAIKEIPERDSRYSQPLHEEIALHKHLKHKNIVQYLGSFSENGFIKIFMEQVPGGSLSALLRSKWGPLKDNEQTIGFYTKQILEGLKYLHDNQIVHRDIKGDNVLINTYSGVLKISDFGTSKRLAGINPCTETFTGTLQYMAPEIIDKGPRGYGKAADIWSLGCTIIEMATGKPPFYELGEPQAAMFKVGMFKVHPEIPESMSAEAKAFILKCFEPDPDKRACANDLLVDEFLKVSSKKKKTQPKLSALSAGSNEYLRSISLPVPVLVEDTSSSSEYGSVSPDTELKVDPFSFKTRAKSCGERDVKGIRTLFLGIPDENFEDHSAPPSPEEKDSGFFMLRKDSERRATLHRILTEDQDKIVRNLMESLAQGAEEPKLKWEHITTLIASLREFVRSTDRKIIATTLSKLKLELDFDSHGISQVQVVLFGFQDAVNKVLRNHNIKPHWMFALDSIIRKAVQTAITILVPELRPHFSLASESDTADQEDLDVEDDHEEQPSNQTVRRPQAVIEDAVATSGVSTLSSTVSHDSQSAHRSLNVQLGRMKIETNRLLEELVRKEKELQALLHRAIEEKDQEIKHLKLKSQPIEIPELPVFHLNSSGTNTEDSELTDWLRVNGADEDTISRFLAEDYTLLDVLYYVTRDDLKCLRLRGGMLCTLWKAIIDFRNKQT"}
{"data": "Series 1", "host": "mouse", "matrix": "microsomes or S9", "tested at": "2 µM", "time": "0.5 h"}
{"SMILES": "COC[C@]1(C)Oc2ccc(N)cc2[C@H](N(Cc2ncc[nH]2)c2ccc(Cl)cc2)[C@H]1O", "remaining compound [%]": 26.1}
{"SMILES": "COc1ccc(N(C)S(=O)(=O)c2cc3c(cc2Cl)Oc2ccccc2NC3=O)cc1", "remaining compound [%]": 64}
{"SMILES": "CCC(C(=O)Nc1ccc(C(=O)O)cc1NC(=O)C(CC)c1ccccc1)c1ccccc1 (stereo not shown)", "remaining compound [%]": 77.9}
{"SMILES": "Cc1nnc2n1CCC(N(C)S(=O)(=O)c1cn(C)cn1)CC2 (stereo not shown)", "remaining compound [%]": 89.6}
{"SMILES": "COC[C@@H]1[C@@H](NC(=O)c2c(OC)cc(=O)n3c2CCNCC3)[C@@H]2CCO[C@H]12", "remaining compound [%]": 83.3}
{"SMILES": "CCc1ccc(C2c3cccn3-c3sc4c(c3CN2C(=O)Nc2ccc(OC)c(OC)c2)CCCC4)cc1 (stereo not shown)", "remaining compound [%]": 84}
{"data": "Series 2", "Compound": "CN(C)C(=O)Cn1cc(-c2nc(C3(c4ccc(-c5cnc(N)nc5)cc4)CC3)no2)cn1", "read-out": "cell-free assay", "method": "competition with immobilised ligand", "tested at": "1 µM"}
{"target": "Tyrosine-protein kinase Mer (MERTK, Homo sapiens, UniProt Q12866)", "remaining binding": "88%"}
{"target": "Ephrin type-B receptor 6 (EPHB6, Homo sapiens, UniProt O15197)", "remaining binding": "93%"}
{"target": "Casein kinase I isoform gamma-2 (CSNK1G2, Homo sapiens, UniProt P78368)", "remaining binding": "82%"}
{"target": "Serine/threonine-protein kinase pim-1 (PIM1, Homo sapiens, UniProt P11309)", "remaining binding": "100%"}
{"target": "Casein kinase II subunit alpha (CSNK2A1, Homo sapiens, UniProt P68400)", "remaining binding": "73%"}
{"target": "Protein-tyrosine kinase 6 (PTK6, Homo sapiens, UniProt Q13882)", "remaining binding": "100%"}
{"target": "Serine/threonine-protein kinase LATS1 (LATS1, Homo sapiens, UniProt O95835)", "remaining binding": "100%"}
{"target": "Calcium/calmodulin-dependent protein kinase type 1B (PNCK, Homo sapiens, UniProt Q6P2M8)", "remaining binding": "77%"}
{"target": "Phosphatidylinositol 4,5-bisphosphate 3-kinase catalytic subunit alpha isoform (PIK3CA, Homo sapiens, UniProt P42336, E545A)", "remaining binding": "99%"}
{"target": "Proto-oncogene tyrosine-protein kinase receptor Ret (RET, Homo sapiens, UniProt P07949, V804M)", "remaining binding": "100%"}
{"target": "Glycogen synthase kinase-3 alpha (GSK3A, Homo sapiens, UniProt P49840)", "remaining binding": "100%"}
{"target": "Leucine-rich repeat serine/threonine-protein kinase 2 (LRRK2, Homo sapiens, UniProt Q5S007, G2019S)", "remaining binding": "100%"}
{"target": "Mitogen-activated protein kinase 3 (MAPK3, Homo sapiens, UniProt P27361)", "remaining binding": "79%"}
{"target": "Macrophage colony-stimulating factor 1 receptor (CSF1R, Homo sapiens, UniProt P07333)", "remaining binding": "100%"}
{"target": "Mitogen-activated protein kinase kinase kinase 5 (MAP3K5, Homo sapiens, UniProt Q99683)", "remaining binding": "91%"}
{"data": "Series 3", "cell line": "Huh-7", "tested at": "10 µM", "time": "24 h"}
{"Structure (SMILES)": "CN(C)[C@@H]1C(O)=C(C(=O)NCN2CCCC2)C(=O)[C@@]2(O)C(O)=C3C(=O)c4c(O)cccc4[C@@](C)(O)[C@H]3C[C@@H]12", "viability": "98%"}
{"Structure (SMILES)": "CC[C@H](C)[C@H](N)C1=N[C@H](C(=O)N[C@@H](CC(C)C)C(=O)N[C@H](CCC(=O)O)C(=O)N[C@H](C(=O)N[C@H]2CCCCNC(=O)[C@H](CC(N)=O)NC(=O)[C@@H](CC(=O)O)NC(=O)[C@H](Cc3cnc[nH]3)NC(=O)[C@@H](Cc3ccccc3)NC(=O)[C@H]([C@@H](C)CC)NC(=O)[C@@H](CCCN)NC2=O)[C@@H](C)CC)CS1", "viability": "99.2%"}
{"Structure (SMILES)": "CC1Cc2ccccc2N1NC(=O)c1ccc(Cl)c(S(N)(=O)=O)c1 (stereo not shown)", "viability": "103%"}
{"Structure (SMILES)": "CN1CCCN=C1COC(=O)C(O)(c1ccccc1)C1CCCCC1 (stereo not shown)", "viability": "101%"}
{"Structure (SMILES)": "CNC[C@H](O)c1cccc(O)c1", "viability": "89.8%"}
{"Structure (SMILES)": "COCC1=C(C(=O)OC(C)OC(=O)OC(C)C)N2C(=O)[C@@H](NC(=O)/C(=N\\OC)c3csc(N)n3)[C@H]2SC1 (stereo partly shown)", "viability": "97%"}
{"Structure (SMILES)": "Sc1ncnc2nc[nH]c12", "viability": "93%"}
{"data": "Series 4", "target": "Serine/threonine-protein kinase 38 (STK38, Homo sapiens, UniProt Q15208)", "read-out": "enzyme activity", "mode": "inhibitor", "tested at": "0.5 µM", "reference": "control", "sequence of UniProt Q15208 (whole entry, looked up)": "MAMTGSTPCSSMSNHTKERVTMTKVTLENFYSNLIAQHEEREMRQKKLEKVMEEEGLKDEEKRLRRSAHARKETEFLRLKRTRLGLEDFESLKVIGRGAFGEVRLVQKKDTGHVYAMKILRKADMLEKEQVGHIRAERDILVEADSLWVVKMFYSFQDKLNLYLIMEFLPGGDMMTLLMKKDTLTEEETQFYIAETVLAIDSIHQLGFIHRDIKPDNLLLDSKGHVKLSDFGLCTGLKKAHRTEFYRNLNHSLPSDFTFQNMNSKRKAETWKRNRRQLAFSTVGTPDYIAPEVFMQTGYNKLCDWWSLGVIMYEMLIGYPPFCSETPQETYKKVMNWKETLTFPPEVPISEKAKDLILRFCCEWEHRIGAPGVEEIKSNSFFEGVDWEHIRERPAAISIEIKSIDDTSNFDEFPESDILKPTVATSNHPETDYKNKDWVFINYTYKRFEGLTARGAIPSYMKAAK"}
{"Structure (SMILES)": "Cc1cc2ncc(-c3ccccc3)nc2cc1C", "remaining activity [%]": 94.7}
{"Structure (SMILES)": "O=C1C(Cl)=C(N2C(=O)CCC2=O)C(=O)c2ccccc21", "remaining activity [%]": 102}
{"Structure (SMILES)": "Cn1nc2c3c(cccc31)C(=O)c1ccccc1-2", "remaining activity [%]": 98.5}
{"Structure (SMILES)": "C[C@@H]1CCN(C(=O)CC#N)C[C@@H]1N(C)c1ncnc2[nH]ccc12", "remaining activity [%]": 95.7}
{"Structure (SMILES)": "CCOc1nc(NC(=O)Cc2cc(OC)ccc2OC)cc(N)c1C#N", "remaining activity [%]": 102}
{"Structure (SMILES)": "COc1cc2c(cc1OC)-c1[nH]nc(Nc3cccc(F)c3)c1C2", "remaining activity [%]": 113}
{"Structure (SMILES)": "CCN(CC)CCNC(=O)c1c(C)[nH]c(/C=C2\\C(=O)Nc3ccc(F)cc32)c1C", "remaining activity [%]": 93.8}
{"Structure (SMILES)": "CN(C)C[C@H]1CCn2c(c(C3=C(c4cn(C)c5ccccc45)C(=O)NC3=O)c3ccccc32)C1", "remaining activity [%]": 96.7}
{"Structure (SMILES)": "CCN(CC)CCNC(=O)c1c(C)[nH]c(/C=C2\\C(=O)Nc3ccc(Cl)cc32)c1C", "remaining activity [%]": 95.8}
{"Structure (SMILES)": "N#C/C(=C\\c1ccc(O)c(O)c1)C(=O)NCc1ccccc1", "remaining activity [%]": 99.1}
{"Structure (SMILES)": "N#Cc1c(NC(=O)c2cccc3ccccc23)sc2c1CCCC2", "remaining activity [%]": 97.7}
{"Structure (SMILES)": "c1ccc(-c2[nH]ncc2-c2ccnc3ccccc23)nc1", "remaining activity [%]": 111}
{"Structure (SMILES)": "Cc1cn(-c2cc(NC(=O)c3ccc(C)c(Nc4nccc(-c5cccnc5)n4)c3)cc(C(F)(F)F)c2)cn1", "remaining activity [%]": 98}
{"Structure (SMILES)": "CN([C@@H](Cc1ccc(OS(=O)(=O)c2cccc3cnccc23)cc1)C(=O)N1CCN(c2ccccc2)CC1)S(=O)(=O)c1cccc2cnccc12", "remaining activity [%]": 97.2}
{"Structure (SMILES)": "COc1cc2ncnc(Nc3cccc(Cl)c3)c2cc1OC", "remaining activity [%]": 104}
